Results gathered from unrelated publications.
Each line is one published result; not all experiments were run side by side. Numbers after ± are the reported error.

`Cc1ccc2cc3c(ccc4cc(C)ccc43)cc2c1` — result for “minimal protective dose”: 0.5 mg (adrenal haemorrhage prevention; rat; oral, added: 7,12-DMBA 5 mg i.v.).
`CCN1CCN(c2ccc(Nc3cc(N(C)C(=O)Nc4c(Cl)c(OC)cc(OC)c4Cl)ncn3)cc2)CC1`: “patients with tumour reduction” 40.7% (FGFR1-amplified squamous NSCLC patients; ≥100 mg).
For `COc1c(C)c(C)c2c(c1C)CCC(C)(C(=O)NN=C1C(=O)Nc3ccc(F)cc31)O2` (stereo not shown), “minimal effective dose” read 100 mg/kg (seizure protection; male CF-1 mice; intraperitoneal, 0.5 h, added: maximal electroshock).
For `COc1cc(CN(CCN)C(=O)c2cccs2)ccc1OCc1ccccc1.Cl`, “decrease in c-Fos-positive neurons” read 45% (rat, lateral parabrachial nucleus; intravenous, 6 mg/kg, added: cold exposure 4 °C 2 h).
`Cc1c(C)c2c(c(C)c1O)CCC(C)(C(=O)NN=C1C(=O)Nc3cc(Cl)ccc31)O2` (stereo not shown): “minimal effective dose” 300 mg/kg (seizure protection; male CF-1 mice; intraperitoneal, 4 h, added: maximal electroshock).
`PHGYFLPGQFAFS` has an optimal dose of 100 pM (cytokine expression suppression; peptide, mouse peritoneal macrophages, C57BL/6 mice; 1 h pretreatment, added: LPS/IFN-γ 15 h).
For `Cc1ccc(N(O)N=Nc2ccc(S(=O)(=O)Nc3cc(C)on3)cc2)cc1`, the inhibition was 88.6% (paw oedema; rat, carrageenan oedema; oral, 100 mg/kg, 4 h after carrageenan; relative to: vehicle).
`insulin` — result for “18F-FDG SUV slope”: 0.0018 ± 0.0018 (PET imaging; CD IGS rat, gastrocnemius both sides; intravenous, 0.0041-0.0083 IU/kg, 20 to 60 min).
`O=C1N=C(NN=C2C(=O)Nc3ccccc32)SC1=C1c2ccccc2-c2nc3cc(F)ccc3nc21` gave a blood glucose of 240 ± 54.2 mg/dL (mice with STZ-induced diabetes; oral, 25 mg/kg, 144 h, day 6).
With `CN(O)N=Nc1ccc(S(=O)(=O)Nc2nccs2)cc1` the inhibition was 44.9% (paw oedema; rat, carrageenan oedema; oral, 100 mg/kg, 2 h after carrageenan; relative to: vehicle).
With `C[C@]12CCCN1CC1=NNC(=O)c3cc(F)cc4[nH]c2c1c34` the inhibition was 53% (PARylation, item: PAR; MDA-MB-436 xenograft, mouse, tumour; 5.45 mg/kg single dose, 24 h).
`Nc1ccc2ccc3c4ccccc4ccc3c2c1`: “minimal protective dose” 0.5 mg (adrenal haemorrhage prevention; rat; oral, added: 7,12-DMBA 5 mg i.v.).
`Cc1c(C)c2c(c(C)c1OCc1ccccc1)CCC(C)(C(=O)NN=C1C(=O)Nc3ccc(Cl)cc31)O2` (stereo not shown): “minimal effective dose” 100 mg/kg (seizure protection; male CF-1 mice; intraperitoneal, 4 h, added: pentylenetetrazole 60 mg/kg subcutaneous).
`CC1(C)O[C@@H]2[C@@H](CO[C@@]3(COS(N)(=O)=O)OC(C)(C)O[C@@H]23)O1` — result for “GTCS progressing to tonic hindlimb extension”: “decreased” (Scn1a+/- mice; oral in chow, dose not given, spontaneous seizures, subchronic; relative to: untreated).
Under “basal dopamine level”, `COc1ccc2c(c1)CC[C@H](CN(C)CC(=O)O)[C@@H]2c1ccccc1` is recorded as 0.47 ± 0.27 pg/10 µL (rat, prefrontal cortex microdialysate; oral gavage, 10 mg/kg/day, 2 weeks).
`Cc1c(C)c2c(c(C)c1O)CCC(C)(C(=O)NN=C1C(=O)N(C)c3ccccc31)O2` (stereo not shown) — result for “minimal effective dose”: 30 mg/kg (seizure protection; male CF-1 mice; intraperitoneal, 0.5 h, added: maximal electroshock).
`NCCCC[C@@H]1NC(=O)[C@@H](Cc2c[nH]c3ccccc23)NC(=O)[C@H](c2ccccc2)NC(=O)[C@@H]2C[C@@H](OC(=O)NCCN)CN2C(=O)[C@H](Cc2ccccc2)NC(=O)[C@H](Cc2ccc(OCc3ccccc3)cc2)NC1=O` — result for “GH AUC(0-2h) change”: 1% (GHRH-stimulated GH secretion; healthy human volunteers; subcutaneous, 10 µg, added: GHRH 1 µg/kg; relative to: pre-dose baseline).
For `C[C@H]1C[C@H]2CSC(N)=N[C@@]2(c2nc(NC(=O)c3ccc(OC(F)F)cn3)cs2)CO1`, “change from baseline” read -87.4% (item: CSF Aβ1–38; healthy adults; 275 mg once daily, 14 days, day 15; relative to: placebo-adjusted baseline).
For `Cc1cc(NS(=O)(=O)c2ccc(N=NN(O)c3ccccc3)cc2)no1`, the inhibition was 82.6% (paw oedema; rat, carrageenan oedema; oral, 100 mg/kg, 4 h after carrageenan; relative to: vehicle).
`O=C1CSC(NN=C2c3ccccc3-c3nc4cc(F)ccc4nc32)=N1` has a blood glucose of 230 ± 9.3 mg/dL (mice with STZ-induced diabetes; oral, 25 mg/kg, 288 h, day 12).
For `CCOc1ccc(Cc2cc([C@]34OC[C@](CO)(O3)[C@@H](O)[C@H](O)[C@H]4O)ccc2Cl)cc1`, “urinary glucose excretion” read roughly 15% (human, type 2 diabetes, severe renal impairment; dose not given, 24 h; relative to: normal renal function median).
`Polymyxin B` gave an IL-1β release of 18.4 ± 11.2% (human whole blood; 250 ng/mL, 4 h, 37 °C, added: E. coli LPS 0.5 ng/mL; relative to: LPS without compound).
`insulin aspart`: “time to GIRmax” 138 min (euglycaemic glucose clamp; Japanese type 1 diabetes patients; subcutaneous, 0.2 U/kg).
With `Cc1noc(NS(=O)(=O)c2ccc(N=NN(C)O)cc2)c1C` the inhibition was 30.3% (paw oedema; rat, carrageenan oedema; oral, 100 mg/kg, 2 h after carrageenan; relative to: vehicle).
`Cc1cc(C)c(/C=C2\C(=O)Nc3ccccc32)[nH]1` has a tumour volume of 75.1 cm³ (MRI; human; dose not given, 2.7 months).
For `SIIVFEKL`, “single cytokine producers” read 17.7% (flow cytometry, item: CD44hi CD8+ T cells; peptide, OT-I CD8+ T cells, mouse; dose not given, primed 5 days, TGF-β1 from day 2 onward, added: 20 ng/mL TGF-β1).
The inhibition of `CCN(O)N=Nc1ccc(S(=O)(=O)Nc2nccs2)cc1` is reported as 71.7% (paw oedema; rat, carrageenan oedema; oral, 100 mg/kg, 4 h after carrageenan; relative to: vehicle).
`CCOC(=O)C=C1SC(NN=C2c3ccccc3-c3nc4cc(F)ccc4nc32)=NC1=O` has a blood glucose of 323 ± 65.2 mg/dL (mice with STZ-induced diabetes; oral, 25 mg/kg, 288 h, day 12).
`Cc1c(C)c2c(c(C)c1O)CCC(C)(C(=O)NN=C1C(=O)Nc3ccccc31)O2` (stereo not shown): “minimal effective dose” greater than 300 mg/kg (seizure protection; male CF-1 mice; intraperitoneal, 0.5 h, added: maximal electroshock).
With `COc1ccc2nc([S@@+]([O-])Cc3ncc(C)c(OC)c3C)[nH]c2c1` the intragastric pH was 2.4 (human ultra-rapid metabolizer; 40 mg/day, day 6, 5 days dosing).
`insulin detemir`: “glucose infusion rate AUC” 1080 ± 785 mg/kg (euglycaemic glucose clamp; type 2 diabetic patients; subcutaneous, 0.4 U/kg, 0 to 32 h, after 1 week bedtime dosing).
`CCc1cc(-c2noc(-c3cc(OC)nc(C4CCCC4)c3)n2)cc(C)c1OC[C@@H](O)CO`: “minimal effective plasma concentration” roughly 132 nM (lymphocyte count reduction; Wistar rats, plasma; oral).
For `COc1ccc2c(c1)c(CC(=O)O)c(C)n2C(=O)c1ccc(Cl)cc1`, the cytokine level was 492 ± 135 pg/mL (multiplex bead immunoassay, item: IP-10; CD-1 mice, serum; ip, 20 mg/kg, three-injection regimen, added: LPS 3 mg/kg).
`RALRTK`: “inhibition of RANTES release” 0% (ELISA or Luminex; peptide, mouse peritoneal macrophages, C57BL/6 mouse; optimal dose within 0.1 pM to 100 nM, 1 h pretreatment, 15 h stimulation, added: LPS 100 ng/mL + IFN-γ 20 ng/mL; relative to: LPS/IFN-γ stimulated control).
`Cc1c(C)c2c(c(C)c1OCc1ccccc1)CCC(C)(C(=O)NN=C1C(=O)N(C)c3ccc(Cl)cc31)O2` (stereo not shown): “minimal effective dose” 100 mg/kg (seizure protection; male CF-1 mice; intraperitoneal, 4 h, added: maximal electroshock).
For `Cc1cc2cc3ccccc3cc2c2ccccc12`, “minimal protective dose” read 0.5 mg (adrenal haemorrhage prevention; rat; oral, added: 7,12-DMBA 5 mg i.v.).
With `Cc1cc(C(=O)/C(=C\c2ccc(Br)cc2)c2ccc(Br)cc2)c(C(=O)N2CCCCC2)c(=O)[nH]1` the IC50 was greater than 10 µM (cell proliferation, MTT; 35404 melanoma brain metastasis, human patient-derived; 72 h, tested up to 10 µM).
For `CC[C@H](C)[C@@H]1NC(=O)[C@H](CCCNC(=N)N)NC(=O)[C@H](CC(=O)O)NC(=O)[C@H](CC(C)C)NC(=O)[C@H](CCCCN)NC(=O)[C@H](CC(C)C)NC(=O)CNC(=O)[C@H](Cc2ccccc2)NC(=O)[C@@H](NC(=O)CNC(=O)[C@H](CCCCN)NC(=O)[C@H](CO)NC(=O)[C@H](CC(C)C)NC(=O)CNC(=O)[C@H](CCCCN)NC(=O)[C@H](CCCCN)NC(=O)[C@H](CC(N)=O)NC(=O)[C@H](C)NC(=O)CNC(=O)[C@H](CCCCN)NC(=O)[C@H](Cc2ccc(O)cc2)NC(=O)[C@H](CCCCN)NC(=O)[C@H](CCCNC(=N)N)NC(=O)[C@H](C)NC(=O)[C@H](CC(N)=O)NC(=O)[C@@H]2CCCN2C(=O)[C@H](Cc2c[nH]cn2)NC(=O)[C@H](CCC(=O)O)NC(=O)[C@H](CCC(N)=O)NC(=O)CNC(=O)[C@@H]2CCCN2)CSSC[C@@H](C(=O)O)NC(=O)CNC(=O)[C@H](CC(C)C)NC(=O)CNC(=O)[C@H](CO)NC(=O)[C@H](CCSC)NC(=O)[C@H](CO)NC(=O)CNC1=O`, the Emax was 2.8 cm/year (annualized growth velocity change; human patients with achondroplasia; day 183, Emax model vs mean Cmax, Hill 1; relative to: baseline).
`COc1c(C)c(C)c2c(c1C)CCC(C)(C(=O)NN=C1C(=O)Nc3ccc(Br)cc31)O2` (stereo not shown) — result for “minimal effective dose”: greater than 300 mg/kg (seizure protection; male CF-1 mice; intraperitoneal, 4 h, added: maximal electroshock).
`CC(=O)O[C@H]1C(=O)[C@@]2(C)[C@H]([C@H](OC(=O)c3ccccc3)[C@]3(O)C[C@H](OC(=O)[C@H](O)[C@@H](NC(=O)c4ccccc4)c4ccccc4)C(C)=C1C3(C)C)[C@]1(OC(C)=O)CO[C@@H]1C[C@@H]2O`: “tumour growth inhibition” 48% (A549 xenograft, Mus musculus; intravenous, 10 mg/kg every 4 days; relative to: vehicle).
`SIYNFEKL` — result for “single cytokine producers”: 22% (flow cytometry, item: CD44hi CD8+ T cells; peptide, OT-I CD8+ T cells, mouse; dose not given, primed 5 days, TGF-β1 from day 2 onward, added: 20 ng/mL TGF-β1).
`Cc1c(C)c2c(c(C)c1OCc1ccccc1)CCC(C)(C(=O)NN=C1C(=O)Nc3ccc(Br)cc31)O2` (stereo not shown) — result for “minimal effective dose”: 100 mg/kg (seizure protection; male CF-1 mice; intraperitoneal, 0.5 h, added: pentylenetetrazole 60 mg/kg subcutaneous).
`CN1CCN(CC(=O)N2c3ccccc3C(=O)Nc3cccnc32)CC1` gave an EPSC amplitude of 107 ± 6.54% (whole-cell voltage clamp; nucleus accumbens core D2-MSNs, mouse; 1 µM, added: D1-MSN 50 Hz stimulation; relative to: baseline).
For `CCOC(=O)c1sc(N=C2c3ccccc3-c3nc4cc(F)ccc4nc32)nc1C`, the blood glucose was 364 ± 69 mg/dL (mice with STZ-induced diabetes; oral, 25 mg/kg, 144 h, day 6).
The mRNA level of `CS/C(S)=N/CCCC[S+](C)[O-]` (racemic) is reported as 11.1 fold (item: Arnt; rat, mammary gland; oral gavage, 200 mg/kg, 4 days daily; relative to: vehicle).
For `Oc1cc2c(cc1O)C(c1ccccc1)CNCC2` (stereo not shown), “cognitive performance recovery” read 57% (T-maze alternation; CD-1 mouse, male; sc, 2 mg/kg, added: MK-801 0.075 mg/kg sc).
The HVA level of `CC(C)C[C@H](NC(=O)[C@H](CO)NC(=O)[C@H](CCCNC(=N)N)NC(=O)[C@H](CC(=O)O)NC(=O)[C@H](CCC(=O)O)NC(=O)[C@H](C)NC(=O)[C@@H]1CCCN1C(=O)[C@H](C)NC(=O)[C@H](CCC(=O)O)NC(=O)[C@@H]1CCCN1C(=O)[C@@H]1CCCN1)C(N)=O` is reported as 658 ± 60 ng/g (HPLC-EC; F344 rat, normal, striatum; intranasal, 1000 µg, 5 days/week for 3 weeks).
`CCOC(=O)c1sc(NN=C2c3ccccc3-c3nc4cc(F)ccc4nc32)nc1C` gave a blood glucose of 275 ± 24 mg/dL (mice with STZ-induced diabetes; oral, 25 mg/kg, 216 h, day 9).
`TLQPPASSRRRAFHHALPPAR` gave a contractile activity of 95 ± 4% (peptide, rat stomach fundus strips; 3 µM; relative to: TLQP-21).

Excerpt of the above:
With `Cc1noc(NS(=O)(=O)c2ccc(N=NN(C)O)cc2)c1C` the inhibition was 30.3% (paw oedema; rat, carrageenan oedema; oral, 100 mg/kg, 2 h after carrageenan; relative to: vehicle).
`Cc1c(C)c2c(c(C)c1O)CCC(C)(C(=O)NN=C1C(=O)Nc3ccccc31)O2` (stereo not shown): “minimal effective dose” greater than 300 mg/kg (seizure protection; male CF-1 mice; intraperitoneal, 0.5 h, added: maximal electroshock).
For `COc1ccc2c(c1)c(CC(=O)O)c(C)n2C(=O)c1ccc(Cl)cc1`, the cytokine level was 492 ± 135 pg/mL (multiplex bead immunoassay, item: IP-10; CD-1 mice, serum; ip, 20 mg/kg, three-injection regimen, added: LPS 3 mg/kg).
`Cc1c(C)c2c(c(C)c1OCc1ccccc1)CCC(C)(C(=O)NN=C1C(=O)N(C)c3ccc(Cl)cc31)O2` (stereo not shown): “minimal effective dose” 100 mg/kg (seizure protection; male CF-1 mice; intraperitoneal, 4 h, added: maximal electroshock).
